Results gathered from unrelated publications.
Several values in a cell are separate wells, animals, samples, runs or records. ± gives the spread as reported. Values after ≈ are worked out from the molar mass of the structure shown.

O=C(Cc1cccc([N+](=O)[O-])c1)N[C@H]1CCOC1=O
inhibition (ExpR1 (Pectobacterium carotovorum); cellulase activity, antagonist; Pectobacterium carotovorum, single-ExpR1 strain; 5 µM, 4 h, together with: OHHL 5 µM): -15%

CC[C@@H](NC(=O)CNC(=O)[C@@H](CC(C)C)NC(=O)CNC(=O)[C@H](N)CCC(N)=O)C(=O)N[C@H](CC(=O)O)C(=O)N[C@H](CCC(=O)O)C(=O)N[C@H](CC(N)=O)C(=O)N[C@H](CC(C)C)C(=O)N[C@H](CCC(N)=O)C(=O)NCC(=O)N[C@H](Cc1ccccc1)C(=O)N[C@H](C)C(=O)N[C@@H](C(=O)N[C@H](C)C(=O)N[C@@H](C(=O)N[C@H](CCCCN)C(=O)N[C@H](CCSC)C(=O)NCC(=O)N[C@H](C)C(=O)N[C@H](Cc1ccc(O)cc1)C(=O)N[C@H](CCCCN)C(=O)N[C@H](C)C(=O)N[C@H](Cc1c[nH]c2ccccc12)C(=O)O)C(C)C)C(C)C
IC50 (hemagglutinin influenza A/California/07/2009 H1N1): 43 µM

CC[C@H](C)[C@@H]1NC(=O)[C@@H]2CCCN2C(=O)[C@H](CC(C)C)NC(=O)[C@H](CC(C)C)NC(=O)CNC(=O)[C@@H](NC(=O)[C@@H](NC(=O)[C@H](CC(=O)O)NC(=O)CNC(=O)[C@@H](NC(=O)[C@H](C)NC(=O)CNC(=O)[C@H](CCCCN)NC(=O)[C@H](CC(C)C)NC(=O)[C@H](CC(C)C)NC(=O)[C@H](CCCCN)NC(=O)CNC(=O)[C@@H](NC(=O)[C@@H](N)CC(C)C)C(C)C)C(C)C)C(C)C)CSSC[C@@H](C(=O)O)NC1=O
log2 fold change (RNA-seq, item: Hcls1; mouse, traumatic brain injury model, frontal cortex and hippocampus; dose not given; reference: TBI alone): -2.03

O=C1c2c(O)c(=O)ccn2N([C@@H]2c3ccccc3SCc3c2ccc(F)c3F)[C@@H]2COCCN12
lung virus titre (influenza A virus; A/WSN/33 (H1N1), BALB/c mouse, lung; subcutaneous, 0.0625 mg/kg every 6 h, 24 h): 3.91 log10 TCID50/mL

c1ccc(C(NCCNC(c2ccccc2)c2ccccc2)c2ccccc2)cc1
inhibition (GABA transporter (rat); Eurofins selectivity panel; 10 µM): 46%

C[C@H]1[C@H](C)CC[C@]2(C(=O)O)CC[C@]3(C)C(=CC[C@@H]4[C@@]5(C)CC[C@H](O)C(C)(C)[C@@H]5CC[C@]43C)[C@H]12
cell survival (MCF7; cell growth, MTT; 100 µg/mL, 48 h): 21.3 ± 0.42%

CC(C)N1CCC(NC2CCN(c3cccc(-c4cc5cc(F)ccc5[nH]4)c3)CC2)CC1
GI50 (786-0): 1.65 µM

CCCCCCCCCC(=O)CC(=O)N[C@H]1CCOC1=O
activation (ExpR1 (Pectobacterium carotovorum); cellulase activity, agonist; Pectobacterium carotovorum, single-ExpR1 strain; 200 µM, 4 h; reference: OHHL): 2%

CC[C@@H](NC(=O)CNC(=O)[C@@H](Cc1ccccc1)NC(=O)CNC(=O)[C@H](N)CCC(N)=O)C(=O)N[C@H](CC(=O)O)C(=O)N[C@H](CCC(=O)O)C(=O)N[C@H](CCSC)C(=O)N[C@H](CC(C)C)C(=O)N[C@H](CCC(N)=O)C(=O)NCC(=O)N[C@H](Cc1ccccc1)C(=O)N[C@H](C)C(=O)N[C@@H](C(=O)N[C@H](C)C(=O)N[C@H](CC)C(=O)N[C@H](CCCCN)C(=O)N[C@H](CCSC)C(=O)NCC(=O)N[C@H](C)C(=O)N[C@H](Cc1ccc(O)cc1)C(=O)N[C@H](CCCCN)C(=O)N[C@H](C)C(=O)N[C@H](Cc1c[nH]c2ccccc12)C(=O)O)C(C)C
IC50 (hemagglutinin influenza A/California/07/2009 H1N1): 30 µM

CN1CC[C@]23c4c5ccc(O)c4O[C@H]2[C@@H](O)C=C[C@H]3[C@H]1C5
time to peak effect (hot water tail withdrawal test; STZ-diabetic Sprague-Dawley rats; dose not given): 30 to 45 min

CCCCC1(CCCC)CN(c2ccccc2)c2cc(SC)c(OCC(=O)N[C@@H](C(=O)NCC(=O)O)c3ccccc3)cc2S(=O)(=O)C1
serum HDL-C (item: HDL cholesterol; human, serum; 2.5 mg once daily, day 7): 56 mg/dL

CC[C@H](C)[C@H](NC(=O)[C@H](C)NC(=O)[C@H](CCCCN)NC(=O)[C@H](CC(C)C)NC(=O)[C@H](C)NC(=O)[C@@H](NC(=O)[C@H](Cc1c[nH]cn1)NC(=O)[C@H](CC(C)C)NC(=O)[C@@H](NC(=O)[C@@H](NC(=O)[C@H](CCCCN)NC(=O)[C@H](C)NC(=O)[C@H](C)NC(=O)[C@H](CO)NC(=O)[C@H](CCCCN)NC(=O)[C@H](Cc1ccccc1)NC(=O)[C@@H](NC(=O)[C@H](CCCCN)NC(=O)[C@H](CC(C)C)NC(=O)[C@H](Cc1ccccc1)NC(=O)[C@H](CO)NC(=O)[C@H](CCCCN)NC(=O)[C@H](Cc1c[nH]c2ccccc12)NC(=O)[C@H](CCCCN)NC(C)=O)[C@@H](C)O)[C@@H](C)O)C(C)C)[C@@H](C)O)C(=O)N[C@@H](CO)C(=O)N[C@@H](CO)C(N)=O
MIC geometric mean (Acinetobacter baumannii; ATCC 19606): 2 µg/mL (≈ 0.682 µM)

COc1c(CCC[P+](c2ccccc2)(c2ccccc2)c2ccccc2)cc2c(c1OC)OCO2.[I-]
TGI (BT-549; SRB): -4.82 log M

COc1ccc(-n2nc(C(C)=O)s/c2=N\N=C(/C)c2ccc(NC(C)=O)cc2)cc1
toxicity (MCF7; 0.078 µM): 53.9%

CN1C(=O)C(C2C3=C(CC(C)(C)CC3=O)Oc3c(O)cccc32)C(=O)N(C)C1=O (stereo not shown)
mRNA level (3T3-L1 adipocytes; qPCR, item: aP2; IC20, 14 days, adipogenic induction; reference: untreated): no effect

CC(C)C[C@H](CN)CC(=O)O
rheobase (whole-cell current clamp; DRG neurons, rat, spinal cord injury; 10 µM, overnight, together with: nimodipine 5 µM): 35 pA and 200 pA and 100 pA and 125 pA and 165 pA and 160 pA

O=[N+]([O-])c1cc2c(ccc3c4cc([N+](=O)[O-])oc4ccc23)o1
MIC90 (Mycobacterium bovis BCG; 1173 P2): 0.5 µg/mL (≈ 1.68 µM)

COc1cc(CCC[P+](c2ccccc2)(c2ccccc2)c2ccccc2)c(OC)c2c1OCO2.[I-]
Log10TGI (CCRF-CEM; SRB): > -4 log M

COCCC1=C(C(=O)OC)C(c2ccc(Cl)cc2)C2=C(CC(c3ccc(OC)c(OC)c3)CC2=O)N1 (single isomer, unassigned)
EC50 (J774.A1; cytotoxicity): > 20 µM

C[C@]1(CO)Cc2ncn(-c3ccc(C#N)c(Cl)c3)c2C(=O)O1
urinary excretion (aldosterone synthesis, inhibitor, item: potassium; healthy Japanese adults, urine; 80 mg, 0-24 h at steady state, multiple rising dose): 29.6 mmol

Nc1ncnc2c1ncn2[C@@H]1O[C@@H]2COP(=O)(O)O[C@H]3[C@@H](O)[C@H](n4cnc5c(=O)[nH]cnc54)O[C@@H]3COP(=O)(O)O[C@H]2[C@H]1O
fold enrichment (HFF-1; RNA sequencing, item: Reactome Interferon gamma signaling; upregulated pathways; reference: mock): 11.9

CS(=O)(=O)CCCn1c(Cn2c(=O)n(CC(F)(F)F)c3ccncc32)cc2cc(Cl)ccc21
LS mean difference vs placebo (respiratory syncytial virus; RT-qPCR; hospitalized infants 1-24 months, nasal swab; oral, 8 mg/kg daily, day 7, cohort 6-24 months; reference: placebo): 1.7 log10 copies/mL

A few entries again:
CC[C@@H](NC(=O)CNC(=O)[C@@H](CC(C)C)NC(=O)CNC(=O)[C@H](N)CCC(N)=O)C(=O)N[C@H](CC(=O)O)C(=O)N[C@H](CCC(=O)O)C(=O)N[C@H](CC(N)=O)C(=O)N[C@H](CC(C)C)C(=O)N[C@H](CCC(N)=O)C(=O)NCC(=O)N[C@H](Cc1ccccc1)C(=O)N[C@H](C)C(=O)N[C@@H](C(=O)N[C@H](C)C(=O)N[C@@H](C(=O)N[C@H](CCCCN)C(=O)N[C@H](CCSC)C(=O)NCC(=O)N[C@H](C)C(=O)N[C@H](Cc1ccc(O)cc1)C(=O)N[C@H](CCCCN)C(=O)N[C@H](C)C(=O)N[C@H](Cc1c[nH]c2ccccc12)C(=O)O)C(C)C)C(C)C
IC50 (hemagglutinin influenza A/California/07/2009 H1N1): 43 µM

COc1cc(CCC[P+](c2ccccc2)(c2ccccc2)c2ccccc2)c(OC)c2c1OCO2.[I-]
Log10TGI (CCRF-CEM; SRB): > -4 log M
